Measurements from different studies.
Numbered parts are unrelated; each lists some results of a single study. Substitutions count along the parent as printed.

Block 1
Target: Histone acetyltransferase KAT6A, winged helix 2, GST fusion (KAT6A, Homo sapiens, UniProt Q92794, residues 85-181)
Technique: protein binding microarray
Molecule type: double-stranded DNA, one strand shown
Medium: in vitro
Concentration: not given
Notes: 8-mer, flanks averaged, mean of 2 arrays, mostly near background
Relative to: not given
Direction: higher = stronger binding
Measurement: E-score
Residues (chain): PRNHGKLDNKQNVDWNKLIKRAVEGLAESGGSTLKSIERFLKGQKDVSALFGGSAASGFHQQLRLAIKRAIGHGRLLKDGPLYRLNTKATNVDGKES
CCCGCAAA: 0.17
TAAAACCA: -0.112
GGCGGGCA: 0.253
ATGGCGAC: -0.0711
GCCGGCAA: 0.0851
GGATGGGA: -0.0966
CCGACCTA: 0.0613
ACTTGAGA: -0.115
CCCCGCGG: 0.32
ATCTGTTA: -0.0571
CTATTCCC: 0.0899
GCAGCCAA: 0.0683
AATTAGGA: 0.0582
CAAGCTAC: -0.0458
CATACTAG: -0.1

Block 2
Target: RING finger protein unkempt homolog, zinc fingers 1-6, GST-SBP tag (UNK, Homo sapiens, UniProt Q9C0B0, residues 30-357)
UniProt Q9C0B0, sequence (30-357, looked up): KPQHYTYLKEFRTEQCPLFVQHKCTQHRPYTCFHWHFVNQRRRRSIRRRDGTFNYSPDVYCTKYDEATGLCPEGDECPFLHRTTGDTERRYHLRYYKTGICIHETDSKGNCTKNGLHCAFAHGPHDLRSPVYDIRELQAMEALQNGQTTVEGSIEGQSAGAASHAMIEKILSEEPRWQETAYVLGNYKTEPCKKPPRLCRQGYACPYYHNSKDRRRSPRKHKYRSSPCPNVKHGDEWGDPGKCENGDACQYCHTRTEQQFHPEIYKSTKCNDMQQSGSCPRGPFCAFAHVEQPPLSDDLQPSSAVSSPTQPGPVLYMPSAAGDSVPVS
Technique: RNA Bind-n-Seq
Molecule type: RNA
Medium: in vitro
Concentration: not given
Notes: RNA with constant flanks, human and mouse sites, ends assumed
Relative to: input RNA pool
Direction: higher = stronger binding
Measurement: bound/input enrichment
Shared flanks, not repeated: GGGAGUUCUACAGUCCGACGAUC … CAACAGAGGAUUGAGCAUCA
GAAGCAGACAAUGAUAAUUAUGAAGUUUUAUUCAAUUUGGAGGAACUUAAGUUAGACCAGCCCUUCAUUGAUUGUAUCAGAGUUGCUCCAGAUGAAAAAUAUGUGGCUGCCAAGAUAAGA: 0.333 ratio
CUGCGGCUUUUGGAACAGAAAGUUGAGCUUGCGCAGCUGCAAGAAGAAUGGAAUGAACAUAAUGCCAAAAUAAUUAAAUAUAUAAGAACUAAGACAAAGCCCCAUUUGUUUUAUAUUCCU: 0.793 ratio
UCAGUCUAAGUCACAAAAAUAUCCAGUUUAACAUAAAGCUGUCUGUGCAAAGAAUAGGUGAUAGACUGCUAUUUUAACCAGGCUGAAAAGAAAAACAGAUGCAAGUGUCCCCUUUCAUGG: 0.135 ratio
GCCCUGACAGUGGGCGGGAAAACCGUGUCACGCUUCUAUAAACCUGACUCUAGAUUGGAAUUUUACCGAGAUCUUGGACUGCCACCAAAACAGAUACAUAAAAUCUUUCAUGUGACAGAU: 0.303 ratio
AAGAAUAUUCGAUUUCCACUGAUGACACCACAGGAUCUCAUCAAUUACGUGCAGACAGUAGAUUUCAUGAGAACAGACAAUACCUGCGUGAAUUUGCUUUUGGAAGCUAGCAAUUACCAA: 0.295 ratio
ACACCUUUGUUUCUUGCUGCCCGAGAGGGAAGUUAUGAAGCGGCCAAAAUCCUGUUAGACCAUUUUGCCAACCGGGACAUCACUGACCACAUGGACCGCCUUCCCCGGGAUGUGGCUCGG: 0.207 ratio

Block 3
Target: CCND3, cyclin fold, Cln2 fusion (human)
Technique: yeast growth competition, sequencing
Medium: yeast
Notes: weak parent motif
Relative to: not given
Direction: higher = stronger binding
Measurement: normalised enrichment score
Starting sequence: RBL1 docking peptide (human); GSAKRRLFGEDPP; partner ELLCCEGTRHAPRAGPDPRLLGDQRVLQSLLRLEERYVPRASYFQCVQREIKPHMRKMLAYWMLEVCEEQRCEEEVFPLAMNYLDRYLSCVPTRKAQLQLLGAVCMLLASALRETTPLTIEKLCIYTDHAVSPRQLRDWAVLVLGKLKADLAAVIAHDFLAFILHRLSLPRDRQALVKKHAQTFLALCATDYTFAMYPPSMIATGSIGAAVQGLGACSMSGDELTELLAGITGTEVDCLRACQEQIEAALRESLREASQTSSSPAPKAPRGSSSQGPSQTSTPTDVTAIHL
ASAKRRLFGEDPP [G1A]: 0.188
GSAKRRLFGWDPP [E10W]: 0.113
GSFKRRLFGEDPP [A3F]: 0.124
GSAKRRLFIEDPP [G9I]: 0.142
GSPKRRLFGEDPP [A3P]: 0.107
GSAKGRLFGEDPP [R5G]: 0.0585
GSAKRRLFQEDPP [G9Q]: 0.172
GSAKHRLFGEDPP [R5H]: 0.206
GSAKRRLSGEDPP [F8S]: 0.105
GSAKRRTFGEDPP [L7T]: 0.0506
GSAKRRLFGEDPM [P13M]: 0.0428
GSAKRRMFGEDPP [L7M]: 0.155

Single results of other studies
PhoQ, residues 284 288 289 292 302 303 TGYLSA — fold induction (PhoP, residues 12 14 15 18 19 VQALL (Escherichia coli, UniProt P23836); Sort-seq, item: YFP reporter; E. coli; PhoQ-PhoP variant library, with: 10 µM Mg2+; relative to: high Mg2+ state, higher = stronger signaling): 11.8

Excerpt of the above (block 3):
GSAKRRLFGWDPP [E10W]: 0.113
GSAKHRLFGEDPP [R5H]: 0.206
GSAKGRLFGEDPP [R5G]: 0.0585
GSPKRRLFGEDPP [A3P]: 0.107
GSFKRRLFGEDPP [A3F]: 0.124
